Results of several laboratories.
Values joined by “and” are separate records of one study, mostly repeats; a detail may differ. ± marks the error that the study gave.

With `heparin sodium` the inhibition was 45.7% (NEDD8-cullin 1 interaction; AlphaScreen; 100 µM).
The Tm of `FVTI` is reported as 36.3 ± 0.2 °C (mouse H2-Dd S73C/human β2m; thermal stability rescue, DSF; peptide; 20-fold molar excess, pH 7.2, peptide-deficient, together with: TCEP 1 mM).
Under “relative protein remaining”, `VVVGAAGVGK` is recorded as 1 (HLA class I peptide complex; Western blot; peptide, 293T; 0 h, together with: cycloheximide 100 µg/mL; relative to: baseline).
`GEMVGQARILAQATSDLVNAIKDA`: “mean rupture force” 74.2 pN (vinculin head domain Vd1; complex rupture, AFM single-molecule force spectroscopy; peptide; multiple traces, C-terminal pulling, 800 nm/s).
For `GSGAGKESYV`, “normalised SPR binding response” read 63.8 normalised RU (human SCRIB PDZ3-4 tandem (MBP fusion); surface plasmon resonance; peptide; concentration not given; higher = stronger binding).
`Pam2CSK4` — result for “relative mRNA level”: 0.227 and 0.256 and 0.187 (TLR2; agonist, RT-qPCR, refers to: Mrc1; BV-2; 1.0 µM; relative to: untreated cells).
`KDECVIATEV` has a binding intensity of 0.206 (human SCRIB PDZ3-4 tandem (MBP fusion); automated holdup; peptide, purified PDZ protein; concentration not given, unit not given; relative to: biotin control resin, higher = stronger binding).
With `KKVVYFEFYE` the inhibition was > 75% (UltraID biotin ligase, C-terminal fusion; biotinylation activity, inhibitor, streptavidin/HA fluorescence ratio; peptide, HEK-293T; concentration not given, 30 min, together with: biotin 50 µM; relative to: control).
For `GSGAGPETLV`, the binding intensity was 0.547 (human SCRIB PDZ3-4 tandem (MBP fusion); automated holdup; peptide, crude extract; concentration not given, corrected by standard peak, unit not given; relative to: biotin control resin, higher = stronger binding).
`SLLQWVSQV` has a reporter activation of 26% (Jurkat T cells expressing 1G4 TCR; NFAT-eGFP reporter, fluorescence microscopy; peptide; concentration not given, HLA-A*02:01 NY-ESO system).
With `AAAALERLLQQLAAALAAGEL` the inhibition was > 75% (UltraID biotin ligase, C-terminal fusion; biotinylation activity, inhibitor, streptavidin/HA fluorescence ratio; peptide, HEK-293T; concentration not given, 30 min, together with: biotin 50 µM; relative to: control).
`VVVGASGVGK`: “relative protein remaining” 1 (HLA class I peptide complex; Western blot; peptide, 293T; 0 h, together with: cycloheximide 100 µg/mL; relative to: baseline).
The fractional oxidation of `AAASMWR` is reported as 0.228 (MsrA and MsrB; LC-MS/MS; peptide, acetylated Escherichia coli proteome; 20 min, pH 7.5, 37 °C, together with: MsrA 0.54 µM, MsrB 2.02 µM).
The reporter activation of `TLLEWLTKV` is reported as 0.18% (Jurkat T cells expressing 1G4 TCR; NFAT-eGFP reporter, flow cytometry; peptide; concentration not given, HLA-A*02:01 NY-ESO system).
`human immunoglobulin gamma-1 constant` gave a co-IP enrichment of 0 (co-immunoprecipitation; human RBC cytosol; no crosslinker, unit not given, together with: Band 3 peptide 1-56 bait; relative to: negative control).
With `enoxaparin sodium` the inhibition was -40% (NEDD8-cullin 1 interaction; AlphaScreen; 100 µM).
`human delta-aminolevulinic acid dehydratase` gave a co-IP enrichment of 0 (co-immunoprecipitation; human plasma; unit not given, together with: Band 3 peptide 1-56 bait; relative to: negative control).
`secretory leukocyte protease inhibitor` — result for p38/β-actin ratio: “decreased” (p38 MAPK (mouse); Western blot; RAW264.7; 1 µg/mL).
`KPGKGSETVV`: “normalised SPR binding response” 0 normalised RU (human SCRIB PDZ3-4 tandem (MBP fusion); surface plasmon resonance; peptide; concentration not given; higher = stronger binding).
Under “relative mRNA level”, `Pam3CSK4` is recorded as 1.39 and 1.58 and 1.12 (TLR2; agonist, RT-qPCR, refers to: Msr1; BV-2; 1.0 µM; relative to: untreated cells).
`NRVDSKETEC` has a binding intensity of -0.183 (human MAGI1-2/6 PDZ construct (MBP fusion); automated holdup; peptide, purified PDZ protein; concentration not given, unit not given; relative to: biotin control resin, higher = stronger binding).
`chondroitin` has an inhibition of -85% (NEDD8-cullin 1 interaction; AlphaScreen; 100 µM).
With `KNKEKALII` the t1/2 was 30 min (HLA-B8 (human); complex dissociation; peptide; 37 °C).
`colistin` has an MIC of 1 mg/L (Acinetobacter baumannii; broth microdilution; clinical isolate RKI-No_11/16).
Under “phosphorylation fold change”, `Peginesatide` is recorded as 24.3 fold (ERK5 (MAPK7) human; LC-MS/MS phosphoproteomics, refers to: ERK5 phosphotyrosine site 220; UT7/EPO; 10 nM, 15 min, together with: EPO 10 U/mL; relative to: vehicle).
The binding intensity of `NPDALPETLV` is reported as 0.68 (human MAGI1-3/6 PDZ construct (MBP fusion); automated holdup; peptide, crude extract; concentration not given, corrected by standard peak, unit not given; relative to: biotin control resin, higher = stronger binding).
With `AAAEGEMK` the fractional oxidation was 0.09 (MsrA and MsrB; LC-MS/MS; peptide, acetylated Escherichia coli proteome; 10 min, pH 7.5, 37 °C, together with: MsrA 0.54 µM, MsrB 2.02 µM).
The binding intensity of `SEKHFRETEV` is reported as 0.983 (human SCRIB PDZ3-4 tandem (MBP fusion); automated holdup; peptide, purified PDZ protein; concentration not given, unit not given; relative to: biotin control resin, higher = stronger binding).
`maraviroc` gave a phospho-GSK-3α decrease of 3.42 fold (GSK-3α; mice, NSG hu-PBL, HIV-infected, brain FC region; ip, 120 mg/kg twice daily, 3 weeks post-infection, GSK-3α, total, normalized to; relative to: untreated HIV-infected mice).
Under “normalised SPR binding response”, `GSGAGKETYY` is recorded as 0 normalised RU (human SCRIB PDZ3-4 tandem (MBP fusion); surface plasmon resonance; peptide; concentration not given; higher = stronger binding).
For `ILEAAKSIAAATSALVKAASAAQRE`, “rupture force FWHM lower side” read 26.9 pN (vinculin head domain Vd1; complex rupture, AFM single-molecule force spectroscopy; peptide; single traces, N-terminal pulling, 800 nm/s).
